Assay results collected from several papers.
A part holds a random share of what one study measured.

Sample 1
Target: Fragile X messenger ribonucleoprotein 1, C-terminal low-complexity region (Fmr1, Mus musculus, UniProt P35922)
Technique: RNA Bind-n-Seq
Molecule type: RNA
Sample: in vitro
Concentration: 200 nM
Notes: whole 134-nt RNA, ends assumed
Added: 150 mM LiCl
Relative to: input library
Reading: higher = stronger binding
Each molecule: 7-deaza-guanosine replaces G
All sequences stand within: GGGAGUUCUACAGUCCGACGAUC … UGGAAUUCUCGGGUGUCAAGG
`CUGUGCUACACAUCGUAUGUACCGAAUCGGGGCCCCCCCGGCCCCCCCGGCCCCCCCGGGGAAAGUAUUAUGUUACGCCGUUCGGAUCUG` gave a log2 enrichment of 0.659.
With `ACCAUGCAGGUGGGCAUCUUUGGGAAGUGGGGCAAGGGGGGGAUAGGGAGGGGGGUAAUACUUUGGGAACAGGUGGUCCCAGGUCGUUUC` the log2 enrichment was 1.76.
The log2 enrichment of `UCAAGUCCUGUGCUACACAUCGUAUGUACCGAAUCGGUUUGGUUUUUGGAAAGGAAAGUAUUAUGUUACGCCGUUCGGAUCUGCACUUCC` is reported as -0.545.
`GUCCUGUGCUACACAUCGUAUGUACCGAAUCGGGGUUUGGGGAAAAAAAGGGGUGGGGAAAGUAUUAUGUUACGCCGUUCGGAUCUGCAC` gave a log2 enrichment of -1.52.
`CCUCAAGUCCUGUGCUACACAUCGUAUGUACCGAAUCGGCGGGCGGGCGGGGAAAGUAUUAUGUUACGCCGUUCGGAUCUGCACUUCCAG` has a log2 enrichment of 0.613.
With `CCUGUGCUACACAUCGUAUGUACCGAAUCGGGGAAAAAAAGGAAAAAAAGGAAAAAAAGGAAAGUAUUAUGUUACGCCGUUCGGAUCUGC` the log2 enrichment was -0.418.
`UCUGAGGUCACCAAGCCUCCUCCUUGCUUGGAGAACUCCUCGCCUCCCUCCAGGAUUCCGGAGCCUGAAUCCCCAGCGAAGCCAAACGUC` has a log2 enrichment of 1.53.
The log2 enrichment of `GUCCUGUGCUACACAUCGUAUGUACCGAAUCGGAAAAAAGGGAAAAAAGGAAAAAAGGAAAGUAUUAUGUUACGCCGUUCGGAUCUGCAC` is reported as -0.53.

Sample 2
Target: Sal-like protein 4, full length isoform A (SALL4, Homo sapiens, UniProt Q9UJQ4, residues 1-1053)
UniProt Q9UJQ4, sequence (whole entry, looked up): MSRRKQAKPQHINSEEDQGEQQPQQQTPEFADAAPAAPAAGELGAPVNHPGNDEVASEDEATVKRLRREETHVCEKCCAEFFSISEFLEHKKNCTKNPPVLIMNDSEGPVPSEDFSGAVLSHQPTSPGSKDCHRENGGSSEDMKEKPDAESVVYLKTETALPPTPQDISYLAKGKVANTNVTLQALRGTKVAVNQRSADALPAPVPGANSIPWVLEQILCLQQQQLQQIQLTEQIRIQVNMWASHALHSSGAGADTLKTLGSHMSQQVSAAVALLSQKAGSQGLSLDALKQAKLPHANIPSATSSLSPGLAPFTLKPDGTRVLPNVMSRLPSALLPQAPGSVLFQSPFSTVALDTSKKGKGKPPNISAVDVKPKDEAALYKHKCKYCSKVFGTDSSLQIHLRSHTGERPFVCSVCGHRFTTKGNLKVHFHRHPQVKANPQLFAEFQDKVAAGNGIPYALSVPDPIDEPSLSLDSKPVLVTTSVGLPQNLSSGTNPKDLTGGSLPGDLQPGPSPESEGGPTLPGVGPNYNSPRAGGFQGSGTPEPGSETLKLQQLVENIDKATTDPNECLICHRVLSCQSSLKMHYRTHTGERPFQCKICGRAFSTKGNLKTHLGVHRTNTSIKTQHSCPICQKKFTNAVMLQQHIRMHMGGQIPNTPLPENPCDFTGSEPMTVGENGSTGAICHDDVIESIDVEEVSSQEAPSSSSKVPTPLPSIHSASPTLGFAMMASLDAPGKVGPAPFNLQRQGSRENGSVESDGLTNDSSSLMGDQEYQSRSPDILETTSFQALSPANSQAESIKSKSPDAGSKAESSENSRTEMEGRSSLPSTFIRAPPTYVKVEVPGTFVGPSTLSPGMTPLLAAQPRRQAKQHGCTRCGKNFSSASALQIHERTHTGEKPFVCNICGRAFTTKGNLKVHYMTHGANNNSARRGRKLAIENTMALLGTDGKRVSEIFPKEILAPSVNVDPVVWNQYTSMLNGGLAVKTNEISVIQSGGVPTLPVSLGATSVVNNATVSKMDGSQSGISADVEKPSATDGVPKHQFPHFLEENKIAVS
Technique: universal PBM
Molecule type: double-stranded DNA, one strand shown
Sample: in vitro
Concentration: 600 nM
Notes: 8-mer, flanks averaged, mean of replicates
Reading: higher = stronger binding
`GGGGGACC` gave an E-score of -0.403.
The E-score of `AGCTAGAT` is reported as 0.0813.
For `CCACGCAG`, the E-score was -0.131.
The E-score of `GCAATCGA` is reported as -0.0795.
`AATACTAG` has an E-score of 0.17.
`CGATCACC` gave an E-score of -0.0474.
For `GTCGTACA`, the E-score was -0.00206.
With `AATGCATA` the E-score was 0.226.
For `AACTAGGT`, the E-score was 0.0341.
With `AATCAAGG` the E-score was 0.111.
With `CCTCTAAG` the E-score was -0.0396.
With `GGTCTGGA` the E-score was -0.0789.
With `CGAGGCAA` the E-score was 0.0345.
The E-score of `GCCAGCCC` is reported as -0.325.
For `ACAGTCTG`, the E-score was -0.0865.
The E-score of `CGCTACAA` is reported as -0.0274.
The E-score of `GATCTCAA` is reported as 0.0578.
`CTGTACAG` gave an E-score of 0.105.
The E-score of `ACACTTAA` is reported as 0.202.
With `ACAAGAAC` the E-score was 0.201.
The E-score of `AATTCTTA` is reported as 0.21.
`AAACCTGG` gave an E-score of -0.186.
`CGGATCCC` gave an E-score of -0.362.
With `AAGGCCGA` the E-score was -0.178.
For `AAGGGACG`, the E-score was -0.22.

Sample 3
Target: Interferon regulatory factor 5, full length, phosphomimetic (IRF5, Homo sapiens, UniProt Q13568-2, residues 1-514, S451D/S453D/S456D/S462D)
Technique: protein-binding microarray
Molecule type: double-stranded DNA, one strand shown
Sample: in vitro
Concentration: 940 nM top
Notes: 60-bp whole probe
Added: salmon DNA 0.4 mg/ml
Relative to: random background probes
Reading: higher = stronger binding
All sequences stand within: GCCTAGCAC … GTCTTGATTCGCTTGACGCTGCTG
Under “fitted relative affinity”, `GACGTACTGGGGTTTCGAGACGTGCTA` is recorded as 1.9 z-score.
`TTCTTACTTTGGGATTCTGAGTGCTAG` — result for “fitted relative affinity”: 0.736 z-score.
`TTAGGACTTCTTATCCTTTAGTGCTAG`: “fitted relative affinity” 0.343 z-score.
For `TCATTACCGCATATCGGACTGTGCTAG`, “fitted relative affinity” read 0.0435 z-score.
`GACGGTATCAGTCTCGAGACGTGCTAG` — result for “fitted relative affinity”: 3.63 z-score.
Under “fitted relative affinity”, `TTAGGTCACGGTATCGGTTAGTGCTAG` is recorded as 3.56 z-score.
Under “fitted relative affinity”, `TTAGGTTTCGGTTCAGGTTAGTGCTAG` is recorded as 15.4 z-score.
`TCATATTTAAGCTCCTATACTGTGCTA` — result for “fitted relative affinity”: 0.271 z-score.
For `CTCACCGCTGGAGTTCTGCGGTGCTAG`, “fitted relative affinity” read -0.866 z-score.
`GACGGACTGCTTTTCCGGACGTGCTAG`: “fitted relative affinity” -0.396 z-score.
`CACTCTCTACATGTGTTTACGTGCTAG`: “fitted relative affinity” 2 z-score.
`ATGTTTTTCATTTTTTTTCAGTGCTAG` — result for “fitted relative affinity”: 1.72 z-score.
`GACGGTTTTCTACTGCTGACGTGCTAG`: “fitted relative affinity” 0.842 z-score.
`GACGGTTTCCTTTTCATGACGTGCTAG` — result for “fitted relative affinity”: 2.19 z-score.
`ATAGGTTTCGACTTTCGGTTAGTGCTA` — result for “fitted relative affinity”: 8.54 z-score.
For `GACGGTCTCGGACTAGGGACGTGCTAG`, “fitted relative affinity” read 0.878 z-score.
`GACGATTTCAGTCTCGAGTCGTGCTAG`: “fitted relative affinity” 2.76 z-score.
For `CAGATTTGGCATATCTATTTGTGCTAG`, “fitted relative affinity” read -0.0185 z-score.
`GGAGAGTTCCAGGAGGTCGAGTGCTAG` — result for “fitted relative affinity”: -0.434 z-score.

Sample 4
Target: RNA binding protein fox-1 homolog 2, RRM domain, GST-SBP tag (RBFOX2, Homo sapiens, UniProt O43251-10, residues 100-194)
Technique: RNA Bind-n-Seq
Molecule type: RNA
Sample: in vitro
Concentration: 365 nM
Notes: natural RNA segment, single round, ends assumed
Relative to: no-protein control
Reading: higher = stronger binding
All sequences stand within: GGGAGUUCUACAGUCCGACGAUC … UGGAAUUCUCGGGUGCCAA
Target sequence (chain): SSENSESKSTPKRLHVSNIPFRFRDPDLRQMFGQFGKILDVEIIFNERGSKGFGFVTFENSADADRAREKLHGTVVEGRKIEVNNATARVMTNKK
`CCAACAGAUAAAAGAAGGAACAUUGCAGAGCUAGCAGUCGUGGUAUGGGGGCGACUGGGGAGUCCUCAUUGAAUCCUCAUUUUAUACCCAAAACCCUGAAGCCAUUGGAG` — result for “RBNS enrichment (R)”: 1.13.
`GGGGCUGCUGUGAGGAAAACCUGCCAUUGUGGCCCUGGAGAGUCACCAGCAGCUCUUGGGAAGGACUUGCUGGGAGGCUGAGAGAGGCUUUGGGCACAGCCUGCUGUCUU` — result for “RBNS enrichment (R)”: 0.88.
For `AGCAUUGAAGCUUUUCACCAAAAGAAGUCUCUCCAAAAUAAAUCUUUUGCAGCAAAGUGAUAUUUAUUGAGUUAUGUGGAAAAGAUGGCUUGUAUUUUUCAGAUUAUUAC`, “RBNS enrichment (R)” read 1.22.
Under “RBNS enrichment (R)”, `AUUGUUUUCUGUCCAAACUUCUUAUGACUUUAGUUUUUCAUCAGUCAAUAAAAUUAAUUUACUCUUCAAGAAUCUGUGUGAUCUUCACUGUCUCCUGAGCAAUGUGGCAC` is recorded as 0.565.
`AGACCCUCCCCAAUUCUAGUUCUCCUGGUUGGAGAGGGAGGGGCCUGGCCAGCUUCAGCCUACAGCUUUAAAUUCUGUCUGCUCCUAAAUGGGUCCAAAGCUCAGUACUG` — result for “RBNS enrichment (R)”: 0.337.
`GACAGCACAGGGGACAGGUGGCACACCAUGAGAGGUCUGCCCAGGGUGGGAGCAGUGUCACUGUGCUAGCAAUAGUUGGCUUCUCCCCUGUCAGUGGAAACCCCACUUCU`: “RBNS enrichment (R)” 0.313.
Under “RBNS enrichment (R)”, `CAGAAAAGGCUUCACUCGCUGGGAACGUCAACCCAGCGAGAAAGGAGGGGAAGCCCCUUCUCCGGGGACCUUAUCUGUGGACUCAGGAAUGAUGGUGUUUAUUGCAAAUG` is recorded as 0.69.
Under “RBNS enrichment (R)”, `UAAAAAAGAAAAAGAAAAAUACAUCAGGGAACCACUCCAUGGGGUAAAUGAUGACUACUGUUUGGGGUUUUGAGACCCCGCUGUGUAAAUGUGUGUCUUUCACAGGAGUG` is recorded as 0.55.

For quick reference, copied from above (sample 3):
Under “fitted relative affinity”, `GACGTACTGGGGTTTCGAGACGTGCTA` is recorded as 1.9 z-score.
`GACGGTTTCCTTTTCATGACGTGCTAG` — result for “fitted relative affinity”: 2.19 z-score.
For `TCATTACCGCATATCGGACTGTGCTAG`, “fitted relative affinity” read 0.0435 z-score.
